# Assay results gathered from unrelated publications.
# Compare with care: the assays were run in different laboratories. Values joined by “and” are separate records of one study, mostly repeats; a detail may differ. ± marks the error that the study gave.
# Chain of UniProt P49761 (whole entry, looked up): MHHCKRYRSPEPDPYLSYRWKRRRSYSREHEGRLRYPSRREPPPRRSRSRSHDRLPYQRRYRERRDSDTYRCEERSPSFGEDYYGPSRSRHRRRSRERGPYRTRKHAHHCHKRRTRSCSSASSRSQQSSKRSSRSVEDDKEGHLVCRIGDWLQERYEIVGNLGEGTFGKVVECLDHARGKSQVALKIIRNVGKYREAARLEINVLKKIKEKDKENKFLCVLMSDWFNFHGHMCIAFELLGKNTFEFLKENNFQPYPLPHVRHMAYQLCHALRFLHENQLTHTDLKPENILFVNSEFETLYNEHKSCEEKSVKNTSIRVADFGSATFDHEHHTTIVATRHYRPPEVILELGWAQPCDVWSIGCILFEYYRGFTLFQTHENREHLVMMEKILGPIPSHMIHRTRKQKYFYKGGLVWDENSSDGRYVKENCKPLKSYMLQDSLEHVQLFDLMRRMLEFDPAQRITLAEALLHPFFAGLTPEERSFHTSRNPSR
# Chain of UniProt P09619 (whole entry, looked up): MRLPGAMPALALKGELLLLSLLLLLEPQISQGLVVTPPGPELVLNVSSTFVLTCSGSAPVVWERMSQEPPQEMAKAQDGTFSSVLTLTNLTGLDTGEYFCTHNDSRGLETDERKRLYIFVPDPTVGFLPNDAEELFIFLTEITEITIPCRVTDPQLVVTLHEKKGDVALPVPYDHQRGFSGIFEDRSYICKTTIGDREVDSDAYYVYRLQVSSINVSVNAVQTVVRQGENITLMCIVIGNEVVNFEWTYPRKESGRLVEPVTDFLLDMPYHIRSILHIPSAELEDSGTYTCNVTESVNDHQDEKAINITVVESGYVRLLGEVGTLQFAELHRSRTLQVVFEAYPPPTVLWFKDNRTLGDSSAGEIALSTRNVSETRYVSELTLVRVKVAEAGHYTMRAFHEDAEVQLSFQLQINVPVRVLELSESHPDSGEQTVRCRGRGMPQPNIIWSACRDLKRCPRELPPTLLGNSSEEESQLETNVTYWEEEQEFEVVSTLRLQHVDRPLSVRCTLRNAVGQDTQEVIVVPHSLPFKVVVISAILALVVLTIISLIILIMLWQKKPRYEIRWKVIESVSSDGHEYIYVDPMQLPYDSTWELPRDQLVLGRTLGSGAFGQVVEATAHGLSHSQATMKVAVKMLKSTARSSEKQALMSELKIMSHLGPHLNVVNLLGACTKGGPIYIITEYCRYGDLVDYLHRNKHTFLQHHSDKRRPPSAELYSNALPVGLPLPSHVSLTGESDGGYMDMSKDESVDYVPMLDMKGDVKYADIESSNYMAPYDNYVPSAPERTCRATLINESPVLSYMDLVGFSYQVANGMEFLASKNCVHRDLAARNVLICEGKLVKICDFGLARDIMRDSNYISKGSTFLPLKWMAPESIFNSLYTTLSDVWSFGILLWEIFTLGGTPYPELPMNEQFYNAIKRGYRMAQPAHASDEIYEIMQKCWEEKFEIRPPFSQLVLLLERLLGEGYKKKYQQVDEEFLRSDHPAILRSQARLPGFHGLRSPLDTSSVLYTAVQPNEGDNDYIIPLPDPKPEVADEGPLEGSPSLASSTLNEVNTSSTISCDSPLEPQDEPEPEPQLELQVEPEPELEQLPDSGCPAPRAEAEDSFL
# Chain of UniProt P45985 (whole entry, looked up): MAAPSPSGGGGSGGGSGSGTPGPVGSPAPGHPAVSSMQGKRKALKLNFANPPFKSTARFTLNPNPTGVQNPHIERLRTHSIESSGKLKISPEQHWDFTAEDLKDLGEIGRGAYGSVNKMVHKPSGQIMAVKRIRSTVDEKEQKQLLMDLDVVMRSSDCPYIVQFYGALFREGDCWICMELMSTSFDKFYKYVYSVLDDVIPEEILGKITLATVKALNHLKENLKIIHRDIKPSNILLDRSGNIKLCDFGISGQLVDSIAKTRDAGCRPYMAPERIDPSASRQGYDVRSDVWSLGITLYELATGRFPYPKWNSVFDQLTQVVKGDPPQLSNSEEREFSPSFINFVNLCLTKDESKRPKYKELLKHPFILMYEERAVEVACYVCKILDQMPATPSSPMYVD
# Chain of UniProt P49840 (whole entry, looked up): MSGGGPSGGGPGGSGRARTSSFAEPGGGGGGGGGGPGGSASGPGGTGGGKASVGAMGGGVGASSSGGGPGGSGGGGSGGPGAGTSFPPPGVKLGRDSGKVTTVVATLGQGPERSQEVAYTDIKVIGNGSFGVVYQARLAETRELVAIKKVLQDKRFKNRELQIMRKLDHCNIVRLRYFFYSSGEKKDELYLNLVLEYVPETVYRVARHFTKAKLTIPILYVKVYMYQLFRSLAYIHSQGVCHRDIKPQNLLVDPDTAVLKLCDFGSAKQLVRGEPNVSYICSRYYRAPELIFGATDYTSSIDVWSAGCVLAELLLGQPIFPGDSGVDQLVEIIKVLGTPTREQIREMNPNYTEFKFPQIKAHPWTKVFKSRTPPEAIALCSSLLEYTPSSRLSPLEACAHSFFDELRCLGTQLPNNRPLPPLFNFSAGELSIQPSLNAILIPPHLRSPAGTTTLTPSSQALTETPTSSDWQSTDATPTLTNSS
SMILES,tested on,test,system,setting,scale,measurement,result
CN(CCO)CCO.O=C(O)C(Cl)Cl,Chenopodium album,herbicidal activity,,"15 mg/mL, 21 days, pre-emergence greenhouse",,inhibition,0%
O=C1NC2(CC2)COc2ncc(F)cc2[C@H]2COCCN2c2ccn3ncc1c3n2,,,"Sprague-Dawley rat, male, blood","oral, 2.5 mg/kg/day, end of treatment, 4-week repeated-dose toxicity",relative to: red blood cells,reticulocytes,2.58 ± 3.07%
CC(C)[C@H]1NC(=O)[C@H](Cc2ccccc2)NC(=O)[C@@H](C(C)C)NC(=O)[C@@H](C)NC(=O)[C@H](CO)NC(=O)[C@H](Cc2c(-c3ccc(-c4ccc5ccccc5c4)cc3)[nH]c3ccccc23)NC(=O)[C@@H](C)NC1=O,Mycobacterium marinum,,,,,MIC90,> 100 µM
[O-][N+]1=C(Cc2ccccc2)C2=NCCCN2c2ccccc21,Clostridioides difficile,microbial growth,,,,MIC90,16 µg/mL
CN(C)[C@H]1C[C@@]23CC[C@@]4(O2)C(=CC[C@]2(C)[C@@H](c5ccc6ccncc6c5)CC[C@H]24)C=C3[C@@H](O)[C@@H]1O,"GSK3A (Homo sapiens, UniProt P49840)","ATP probe labelling, inhibitor, KiNativ profiling",,0.1 µM,,inhibition,-2%
O[C@]12C=C(c3nccc4c3[nH]c3ccccc34)[C@@H]3CCN(CCCC/C=C\CC1)C[C@@]31C[C@@H]3/C=C\CCCCN3[C@H]12,Cryptococcus neoformans,microbial growth,ATCC90113,,,IC50,7.25 µg/mL
Cc1cc(C(=O)Nc2nc3cccc(C)c3n2[C@H]2CCCCN(C(=O)/C=C/CN(C)C)C2)ccn1,Trypanosoma brucei,,2T1 CLK1 over-expression induced,concentration not given,,parasite density,680000 parasites/mL and 640000 parasites/mL and 610000 parasites/mL
CC[C@H](C)[C@H](NC(=O)[C@H](C)NC(=O)CNC(=O)[C@H](C)NC(=O)[C@H](CCCCN)NC(=O)[C@H](CO)NC(=O)[C@H](C)NC(=O)[C@H](CCSC)NC(=O)CN)C(=O)N[C@@H](C)C(=O)NCC(=O)N[C@@H](CCCCN)C(=O)N[C@H](C(=O)N[C@@H](C)C(=O)N[C@@H](CCCCN)C(=O)N[C@H](C(=O)N[C@@H](C)C(=O)N[C@@H](CC(C)C)C(=O)N[C@@H](CCCCN)C(=O)N[C@@H](C)C(=O)N[C@@H](CC(C)C)C(N)=O)C(C)C)[C@@H](C)CC,Escherichia coli,,CFT073 nalidixic acid-resistant,added: nalidixic acid,,combination index,0.85
CC(C)[C@H]1NC(=O)[C@H](Cc2ccccc2)NC(=O)[C@@H](C(C)C)NC(=O)[C@@H](C)NC(=O)[C@H](CO)NC(=O)[C@@H](Cc2c(-c3ccc(-c4ccc(-c5ccccc5)cc4)cc3)[nH]c3ccccc23)NC(=O)[C@@H](CO)NC1=O,Mycobacterium marinum,,,,,MIC90,39.8 µM
CC(C)(C)C(=O)OCOP(=O)(OCOC(=O)C(C)(C)C)C1CCCN(O)C1=O (stereo not drawn),SK-MEL-28,,,,,GI50,321 nM
COc1ccccc1-c1n[nH]c2nc(N[C@H]3CC[C@H](NS(=O)(=O)CC(C)C)CC3)ncc12,,"bead binding, competition bead pull-down, refers to: LINJ.29.2420",Leishmania donovani extract,10 µM,relative to: vehicle,relative abundance,0.86
O=C1NC(=O)c2c1c1cc(F)c[n+]3c1c1c2c2cc(O)ccc2[n]1[Ru-4]312([N]=C=S)[S+]3CC[S+]1CC[S+]2CC3 (stereo not drawn),"PDGFRB (Homo sapiens, UniProt P09619)",enzyme activity,,"100 nM, human enzyme, added: 10 µM ATP",relative to: untreated,remaining activity,111%
C#CCN1C(=O)C(CC#C)(C(=O)OCC)Oc2ccccc21 (stereo not drawn),Setaria viridis,,greenhouse,"postemergence, 150 g ai/ha, 21 days",,fresh weight inhibition,> 50%
CN(C)c1nc(NCc2ccc(Oc3ccccc3)cc2)c(/N=N/c2ccc(Cl)cc2)c(N(C)C)n1,Ostrinia furnacalis,leaf dipping,,"500 mg/L, 96 h",,mortality,100%
CC[C@H](C)[C@@H]1NC(=O)[C@@H](CCCNC(=N)N)NC(=O)[C@@H](NC(=O)[C@@H](CC(C)C)NC(=O)[C@H](C)NC(=O)[C@H](C)NC(=O)[C@@H]2CCCN2C(=O)[C@@H](CC(C)C)NC(=O)[C@@H](NC(=O)[C@@H](CCCNC(=N)N)NC(=O)[C@@H](CC(C)C)NC(=O)[C@@H](CC(C)C)NC(=O)[C@@H](NC(=O)[C@@H](CCCNC(=N)N)NC(=O)[C@@H](CC(C)C)NC(=O)[C@@H](NC(=O)[C@@H](NC(=O)CNC(=O)[C@@H](CC(C)C)NC(=O)[C@@H](N)Cc2ccccc2)[C@@H](C)O)C(C)C)C(C)C)C(C)C)CSSC[C@@H](C(=O)O)NC(=O)[C@@H](CCCNC(=N)N)NC(=O)[C@@H](CCCNC(=N)N)NC(=O)[C@H](Cc2ccccc2)NC1=O,Staphylococcus aureus,,"MRSA NCTC 12493, Galleria mellonella larvae","32 mg/kg, planktonic infection",,survival rate,30%
COc1ccccc1-c1n[nH]c2nc(NC3CCN(C(=O)Cc4ccc(F)cc4F)CC3)ncc12,,"bead binding, competition bead pull-down, refers to: LINJ.34.0870",Leishmania donovani axenic amastigote extract,10 µM,relative to: vehicle,relative abundance,0.93
CS(C)(=O)=Nc1ccc(-c2ccc(-c3nc4cc(O[C@@H]5CO[C@H]6[C@@H]5OC[C@H]6O)[nH]c4cc3F)cc2)cc1,"CLK3 (Homo sapiens, UniProt P49761)","enzyme activity, inhibitor",,10 µM,,inhibition,0%
Fc1cccc(COc2ccc(Nc3ncnc4ccc(-c5cccc(N6CCCCC6)c5)cc34)cc2Cl)c1,Trypanosoma cruzi,"intracellular amastigote growth, β-galactosidase CPRG","3T3, Tulahuen, β-galactosidase-expressing","10 µM, 96 h",,inhibition,24%
CC[C@H](C)[C@H](NC(=O)[C@H](CCCCN)NC(=O)[C@H](CCCCN)NC(=O)[C@H](Cc1ccccc1)NC(=O)[C@H](Cc1ccccc1)NC(=O)[C@H](CCCCN)NC(=O)[C@H](CCCCN)NC(=O)[C@H](Cc1ccccc1)NC(=O)[C@H](CCCNC(=N)N)NC(=O)[C@@H](N)CCCCN)C(=O)N[C@@H](CCCCN)C(=O)N[C@@H](CCCCN)C(=O)N[C@@H](CO)C(=O)N[C@H](C(=O)N[C@@H](CCCCN)C(=O)N[C@@H](CCCCN)C(=O)N[C@@H](CCCNC(=N)N)C(=O)N[C@H](C(=O)N[C@@H](CCCCN)C(=O)N[C@@H](CCCCN)C(=O)N[C@@H](CC(C)C)C(=O)N[C@@H](Cc1ccccc1)C(=O)N[C@@H](CCCCN)C(=O)N[C@@H](CCCCN)C(=O)N1CCC[C@H]1C(=O)N[C@@H](CCCNC(=N)N)C(=O)N[C@H](C(=O)N[C@H](C(=O)N1CCC[C@H]1C(=O)N[C@H](C(=O)N[C@@H](CO)C(=O)N[C@H](C(=O)N1CCC[C@H]1C(=O)N[C@@H](Cc1ccccc1)C(=O)O)[C@@H](C)CC)[C@@H](C)CC)[C@@H](C)CC)C(C)C)C(C)C)C(C)C,Pseudomonas aeruginosa,,P4 clinical isolate,20 h,,MBC,16 µg/mL
CC[C@H](C)[C@@H]1NC(=O)[C@H](CO)NC(=O)[C@H](CCCCN)NC(=O)[C@@H]2CSSC[C@@H](C(=O)N[C@@H](Cc3ccc(O)cc3)C(N)=O)NC(=O)[C@H](CCCCN)NC(=O)[C@@H]3CSSC[C@H](NC(=O)[C@H](CCCNC(=N)N)NC(=O)[C@H](CC(C)C)NC(=O)[C@H](CC(=O)O)NC(=O)[C@H](CC(=O)O)NC(=O)[C@H](CCC(=O)O)NC(=O)[C@H](CC(N)=O)NC(=O)[C@H](Cc4c[nH]c5ccccc45)NC(=O)C(C)(CC)NC(=O)CNC(=O)[C@H](CC(N)=O)NC(=O)[C@@H](NC(=O)CNC(=O)[C@H](Cc4ccccc4)NC(=O)CN)CSSC[C@H](NC(=O)[C@H](Cc4ccc(O)cc4)NC(=O)CNC(=O)CNC(=O)[C@H](CCCCN)NC(=O)[C@H](Cc4ccc(O)cc4)NC(=O)[C@H]4CCCN4C(=O)[C@@H]4CCCN4C1=O)C(=O)N[C@@H](C)C(=O)N[C@@H](CCCCN)C(=O)N1CCC[C@@H]1C(=O)NCC(=O)N[C@@H](Cc1ccccc1)C(=O)N[C@@H](C(C)C)C(=O)N3)C(=O)N[C@@H](Cc1c[nH]cn1)C(=O)N[C@@H](CC(N)=O)C(=O)N[C@@H](Cc1c[nH]cn1)C(=O)N2 (stereo partly drawn),Streptococcus pneumoniae,,BS-442,24 h,,MBC,1 µM
CN(C(=O)c1ccn2ncc(-c3ccc(C(N)=O)cc3)c2c1)c1ccc(C#N)cn1,Cryptosporidium parvum,,"UGA1 Nluc, IFN-gamma knockout C57BL/6 mice, faeces","oral, 10 mg/kg daily, 288 h post infection, treatment days 11-17",higher means more parasites,faecal Nluc luminescence,180000 a.u. and 11200 a.u. and 92100 a.u. and 24900 a.u.
CCc1nn(C)c2nc(-c3ccc(C(=O)O)cc3)nc(NCc3ccccc3)c12,Cryptosporidium parvum,,HCT-8,"EC50, 6 h",relative to: DMSO control,parasite number,87.2% and 93.9% and 75% and 59.1%
CCCCCCCCCCCC(=O)C(C)C(=O)N1CCC[C@H]1C(=O)NC(C)(C)C(=O)NC(C)(C)C(=O)NC(C)(C)C(=O)N[C@](C)(CC)C(=O)NCCC(=O)N[C@@H](C)C(=O)N[C@](C)(CC)C(=O)N[C@@H](C)C(=O)N[C@@H](CC(C)C)C(=O)N[C@](C)(CC)C(=O)NCCC(=O)N[C@@H](C)C(=O)N[C@](C)(CC)C(=O)NCCC(=O)N[C@@H](C)C(=O)NC(C)(C)C(=O)NC(C)(C)C(=O)NC(C)(C)C(=O)N[C@@H](C)C(=O)N[C@@H](CC(=O)O)C(=O)O (stereo partly drawn),Candidozyma auris,,"CBS 12775, infected Caenorhabditis elegans",1× MIC,relative to: cpd over DMSO,median survival ratio,1.67
CC(C)[C@H]1NC(=O)C[C@H]2/C=C/CCSSC[C@@H](NC1=O)C(=O)N[C@H](Cc1cccc3ccccc13)C(=O)NCC(=O)O2,"MAP2K4 (Homo sapiens, UniProt P45985)",,,10 µM,,inhibition,-1.4%
COc1ccc(CCNC2CCCc3c2[nH]c2ccc(C)cc32)cc1 (stereo not drawn),Streptococcus pneumoniae,,,"concentration not given, 10% fetal bovine serum",relative to: without serum,MIC fold change,4
CC(C)CC(C(=O)N1CC2(CC1C#N)C(=O)Nc1ccccc12)N(C)C(=O)c1cc2c(F)cc(F)c(F)c2[nH]1 (stereo not drawn),Human coronavirus 229E,cytopathic effect,MRC5,11.94 nM,,inhibition,99.7%
CCC(C)CCC(=O)N[C@H](CCN)C(=O)N[C@@H](CCN)C(=O)N[C@@H](CCN)C(=O)N[C@@H](CC(C)C)C(=O)N[C@H](Cc1ccccc1)C(=O)N[C@@H](CCN)C(=O)N[C@@H](CCN)C(=O)N[C@@H](CC(C)C)C(N)=O (stereo partly drawn),Acinetobacter calcoaceticus,BHI agar spot plating,,"24 h, 37 °C",,MBC,128 µM
CC[C@H](C)CCCCC(=O)N[C@@H](CCN)C(=O)N[C@H](C(=O)N[C@@H](CCN)C(=O)N[C@H]1CCNC(=O)[C@H]([C@@H](C)O)NC(=O)[C@H](CCN)NC(=O)[C@H](CCN)NC(=O)[C@H](CC(C)C)NC(=O)[C@@H](CC(C)C)NC(=O)[C@H](CCN)NC1=O)[C@@H](C)O,Escherichia coli,daily serial passaging,ATCC 8739,"highest sub-MIC, 20 days",relative to: initial MIC,MIC fold change,1.26
[O-][N+]1=C(c2ccc(Cl)cc2)C2=NCCCN2c2ccccc21,Clostridioides difficile,microbial growth,,,,MIC90,16 µg/mL
O=C(c1cncc(-c2ccc3ncnc(Nc4ccc(OCc5cccc(F)c5)c(Cl)c4)c3c2)c1)N1CCOCC1,Trypanosoma cruzi,"intracellular amastigote growth, β-galactosidase CPRG","3T3, Tulahuen, β-galactosidase-expressing","10 µM, 96 h",,inhibition,-2%

# Repeated from above:
SMILES,tested on,test,system,setting,scale,measurement,result
CC[C@H](C)[C@@H]1NC(=O)[C@@H](CCCNC(=N)N)NC(=O)[C@@H](NC(=O)[C@@H](CC(C)C)NC(=O)[C@H](C)NC(=O)[C@H](C)NC(=O)[C@@H]2CCCN2C(=O)[C@@H](CC(C)C)NC(=O)[C@@H](NC(=O)[C@@H](CCCNC(=N)N)NC(=O)[C@@H](CC(C)C)NC(=O)[C@@H](CC(C)C)NC(=O)[C@@H](NC(=O)[C@@H](CCCNC(=N)N)NC(=O)[C@@H](CC(C)C)NC(=O)[C@@H](NC(=O)[C@@H](NC(=O)CNC(=O)[C@@H](CC(C)C)NC(=O)[C@@H](N)Cc2ccccc2)[C@@H](C)O)C(C)C)C(C)C)C(C)C)CSSC[C@@H](C(=O)O)NC(=O)[C@@H](CCCNC(=N)N)NC(=O)[C@@H](CCCNC(=N)N)NC(=O)[C@H](Cc2ccccc2)NC1=O,Staphylococcus aureus,,"MRSA NCTC 12493, Galleria mellonella larvae","32 mg/kg, planktonic infection",,survival rate,30%
C#CCN1C(=O)C(CC#C)(C(=O)OCC)Oc2ccccc21 (stereo not drawn),Setaria viridis,,greenhouse,"postemergence, 150 g ai/ha, 21 days",,fresh weight inhibition,> 50%
